Results gathered from unrelated publications.
Lines come from different studies, so protocols differ.

Cc1ccc([C@@H]2O[C@H](CO)[C@@H](O)[C@H](O)[C@H]2O)cc1Cc1ccc(-c2ccc(F)cc2)s1 — volume of distribution (human, maintenance hemodialysis patients; oral, 100 mg once daily, steady state, median): 178 L
COc1c(OCCCN2CCOCC2)ccc2c1N=C(NC(=O)c1cnc(N)nc1)N1CCN=C21 — volume of distribution (human; dose not given, compartment 2): 508 L
NC(=O)N1c2ccccc2CC(O)c2ccccc21 (stereo not drawn) — volume of distribution (population PK modelling; human patients, plasma; dose not given, weight-scaled): 36.5 L
CC(=O)O[C@H]1C(=O)[C@@]2(C)[C@H]([C@H](OC(=O)c3ccccc3)[C@]3(O)C[C@H](OC(=O)[C@H](O)[C@@H](NC(=O)c4ccccc4)c4ccccc4)C(C)=C1C3(C)C)[C@]1(OC(C)=O)CO[C@@H]1C[C@@H]2O — volume of distribution (noncompartmental analysis; human cancer patients, plasma; intravenous infusion, 60 mg/m^2, cycle 1 day 15, with: daily oral co-medication): 240 L
O=C(/C=C/c1cccc(S(=O)(=O)Nc2ccccc2)c1)NO — volume of distribution at steady state (human, plasma; 2000 mg/m^2, cycle 1 day 1, mean): 25.7 L/m²
Nc1ccn([C@@H]2O[C@H](CO)[C@@H](O)C2(F)F)c(=O)n1 — volume of distribution (HPLC-UV; human, plasma; 800 mg/m^2, mean, after paricalcitol): 397 L/m²
COc1ccc(F)cc1C(=O)NCc1ccc(-c2nn([C@@H](C)C(F)(F)F)c(N)c2C(N)=O)cc1 — volume of single adjusted compartment (VSAC) (Simcyp parameter estimation; human; intravenous, 22 µg): 0.17 L/kg
CN(C)CCCNC(=O)/C(=C/CCCCC(=O)NO)COc1cccc2ccccc12 — volume of distribution at steady state (human patients; intravenous, 187.5 mg/m2, day 1, single dose, mean): 44.9 L
CN(C)N=Nc1[nH]cnc1C(N)=O — volume of distribution (Vz) (human patients, plasma; intravenous, 1000 mg/m^2 over 1 h, cycle 2 day 1, staggered with twice-weekly co-drug): 37.2 L/m²
